Measured values collected from several papers.
Lines come from different studies, so protocols differ. ± gives the spread as reported.
lasR: Transcriptional activator protein LasR (lasR, Pseudomonas aeruginosa, UniProt P25084)

Compound = CN1C(=O)[C@H](Cc2ccccc2)N(C)C(=O)[C@@H]2[C@H]1CCN2Cc1cc(Cl)cc(Cl)c1; target = NKG2-D type II integral membrane protein (KLRK1, Homo sapiens, UniProt P26718); test = binding, SPR; measurement = association rate constant; result = 764 M⁻¹ s⁻¹
Compound = CC[C@H](C)[C@H](NC(=O)[C@H](Cc1c[nH]c2ccccc12)NC(=O)[C@H](CCCCN)NC(=O)[C@@H](NC(=O)[C@H](CC(C)C)NC(=O)[C@H](CCCCN)NC(=O)CNC(=O)[C@@H](NC(=O)[C@@H](NC(=O)[C@H](CO)NC(=O)[C@@H](NC(=O)[C@@H](NC(=O)[C@H](CCCCN)NC(=O)[C@H](CCC(N)=O)NC(=O)[C@H](C)NC(=O)[C@H](CCSC)NC=O)[C@@H](C)CC)[C@@H](C)CC)[C@@H](C)O)[C@@H](C)CC)C(C)C)C(=O)N[C@H](C(=O)N[C@@H](CCCCN)C(=O)N[C@H](C(=O)N[C@H](C(=O)N[C@@H](CC(N)=O)C(=O)N[C@@H](CCCCN)C(=O)N[C@@H](Cc1ccccc1)C(=O)N[C@H](C(=O)N[C@@H](CCCCN)C(=O)N[C@@H](CCCCN)C(=O)O)[C@@H](C)O)C(C)C)[C@@H](C)O)[C@@H](C)CC (racemic); target = POPC membrane; test = membrane binding, stopped-flow FRET; conditions = mole fraction units, room temperature; measurement = binding free energy; result = -7 kcal/mol
Compound = CC[C@H](C)[C@@H]1NC(=O)[C@H](Cc2ccc(O)cc2)NC(=O)[C@@H](N)CSSC[C@@H](C(=O)N2CCC[C@H]2C(=O)N2CCC[C@H]2C(=O)NCC(N)=O)NC(=O)[C@H](CC(N)=O)NC(=O)[C@H](CCC(N)=O)NC1=O; target = Oxytocin receptor (OXTR, Homo sapiens, UniProt P30559); test = Ca2+ mobilisation, agonist; system = CHO cells; measurement = Emax; result = 3480 RFU
Compound = CC(=O)NC(Cc1ccc(Br)c(Cl)c1)C(=O)N[C@@H](C)C(=O)N1CCC[C@H]1C(=O)N1CCC[C@H]1C(=O)N[C@@H](CCC(=O)O)C(=O)N[C@@H](Cc1c[nH]cn1)C(=O)N[C@@H](CO)C(=O)N[C@H](C(=O)N[C@@H](C)C(N)=O)[C@@H](C)OP(=O)(O)O (stereo partly shown); target = MAPK14 (Homo sapiens, UniProt Q16539); test = enzyme activity, inhibitor; conditions = 10 µM; measurement = inhibition; result = 2.17%
Compound = O=C(Cn1cc(-c2cc(F)cc(F)c2)nn1)N[C@H]1CCOC1=O; target = lasR; test = reporter gene, agonist; system = Escherichia coli, DH5α pJN105L/pSC11; conditions = 100 µM; scale = relative to: OdDHL at same concentration; measurement = activation; result = 0%
Compound = CC[C@H](C)[C@@H]1NC(=O)[C@H](CC(C)C)NC(=O)[C@H](C)NC(=O)[C@H](CCCNC(=N)N)NC(=O)[C@H](CC(C)C)NC(=O)[C@H]([C@@H](C)O)NC(=O)[C@H](CCCNC(=N)N)NC(=O)[C@@H]2CCCN2C(=O)[C@H](Cc2c[nH]cn2)NC(=O)[C@H](CC(C)C)NC(=O)[C@H]([C@@H](C)CC)NC(=O)[C@H]([C@@H](C)CC)NC(=O)[C@H](Cc2ccccc2)NC(=O)[C@H](Cc2ccc(O)cc2)NC(=O)CSC[C@@H](C(=O)NCC(N)=O)NC(=O)[C@H]([C@@H](C)CC)NC(=O)[C@H](C(C)C)NC1=O; target = NNMT (Homo sapiens, UniProt P40261); test = inhibitor; conditions = increasing inhibitor concentration, with: nicotinamide 200 µM; measurement = Km of SAM; result = no effect
Compound = NS(=O)(=O)c1ccc(NC(=O)c2ccccc2SSc2ccccc2C(=O)Nc2ccc(S(N)(=O)=O)cc2)cc1; target = Gag-Pol polyprotein, integrase (gag-pol, Human immunodeficiency virus type 1 group M subtype B, UniProt P04585, C1427S); test = zinc release, PAR absorbance, measured: zinc; conditions = pH 7.0, compound per IN protomer; measurement = stoichiometry; result = 1.97
Compound = C[C@@]1(O)CC[C@H]2[C@H](CC[C@@H]3[C@@H]2CC[C@]2(C)[C@@H](C(=O)Cn4cccn4)CC[C@@H]32)C1; target = Membrane progestin receptor delta (Paqr6, Mus musculus, UniProt Q6TCG5); test = pPKA/PKA immunoblot; system = MDA-MB-231 expressing Paqr6-GFP; conditions = 30 nM, 20 min; scale = relative to: control; measurement = PKA activation; result = 93.1 ± 2.69%
Compound = NCc1cc(C(F)(F)F)cc(C(F)(F)F)c1; target = Amyloid-beta precursor protein, amyloid-beta 1-40 oligomers (APP, Homo sapiens, UniProt P05067); test = binding, STD NMR; conditions = highest STD; measurement = STD NMR signal; result = 8.13%
Compound = CC[C@H](C)[C@H](NC(=O)[C@H](Cc1c[nH]cn1)NC(=O)[C@H](CCCCNC(=O)[C@@H](NC(=O)[C@H](CCCCN)NC(=O)CSC[C@H](NC(=O)[C@H](Cc1ccccc1)NC(=O)[C@H](CCCCNC(=O)[C@H](CC(C)C)NC(=O)[C@@H]1CCCN1C(=O)[C@H](CCCCN)NC(=O)CCS[C@@H]1O[C@H](CO)[C@H](O)[C@H](O)[C@H]1O)NC(=O)[C@H](CC(C)C)NC(=O)[C@@H]1CCCN1C(=O)[C@H](CCCCN)NC(=O)C[C@@H]1O[C@@H](C)[C@@H](O)[C@@H](O)[C@@H]1O)C(N)=O)[C@@H](C)CC)NC(=O)[C@@H](NC(=O)[C@H](CCCCN)NC(=O)CSC[C@H](NC(=O)[C@H](Cc1ccccc1)NC(=O)[C@H](CCCCNC(=O)[C@H](CC(C)C)NC(=O)[C@@H]1CCCN1C(=O)[C@H](CCCCN)NC(=O)CCS[C@@H]1O[C@H](CO)[C@H](O)[C@H](O)[C@H]1O)NC(=O)[C@H](CC(C)C)NC(=O)[C@@H]1CCCN1C(=O)[C@H](CCCCN)NC(=O)C[C@@H]1O[C@@H](C)[C@@H](O)[C@@H](O)[C@@H]1O)C(N)=O)[C@@H](C)CC)C(N)=O; target = lecA (Pseudomonas aeruginosa, UniProt Q05097); test = binding, isothermal titration calorimetry; conditions = divided by galactoside copies; scale = relative to: monovalent galactoside KD over ligand KD; measurement = relative potency per galactoside; result = 73
Compound = COCC1CCC2C1=CC1(C)C(=C(C(C)C)C3CCOC31)C(OC1OC3COC(C)(C)OC3C(O)C1O)C(O)C2C (stereo not shown); target = 14-3-3 protein sigma, with TASK3 (SFN, Homo sapiens, UniProt P31947); test = protein-protein interaction, stabilizer, fluorescence polarization; conditions = with: FITC-labelled TASK3 peptide; measurement = cooperativity factor; result = 100
Compound = O=[N+]([O-])c1ccc(OP(=O)(O)O)cc1; target = Alkaline phosphatase PafA (pafA, Elizabethkingia meningoseptica, UniProt Q9KJX5, K162A); system = Chryseobacterium meningosepticum; conditions = pH 8.0; scale = relative to: wild type over mutant kcat/KM; measurement = relative catalytic efficiency; result = 12000
Compound = COCCCN1CCc2c(Cc3ccc(Cl)cc3)[nH]c3c(OC(F)F)ccc(c23)C1=O; target = PDE4D (Homo sapiens, UniProt Q08499); test = enzyme activity, inhibitor; scale = relative to: PDE4D2 IC50 over PDE5A1 IC50; measurement = selectivity ratio; result = 229
Compound = CCN(Cc1ccccc1)C(=O)CCc1nc(CN2CCN(C(=O)Cc3ccc(OC)c(OC)c3)CC2)no1; target = Voltage-gated potassium channel, KQT; KCNQ2(Kv7.2)/KCNQ3(Kv7.3) (KCNQ3/KCNQ2, Homo sapiens, UniProt O43525+O43526); test = whole-cell patch clamp; system = CHO stable; conditions = 100 nM; measurement = V1/2 of activation; result = -21.1 ± 2.39 mV
Compound = O=C(Cn1cc(C2CCCCC2)nn1)N[C@H]1CCOC1=O; target = lasR; test = reporter gene, agonist; system = Escherichia coli, DH5α pJN105L/pSC11; conditions = 100 µM; scale = relative to: OdDHL at same concentration; measurement = activation; result = 1%
Compound = C[C@]1(COC(=O)Cc2ccc(O)c(O)c2)[C@H](C(=O)O)N2C(=O)/C(=C/c3ccccn3)[C@H]2S1(=O)=O; target = Beta-lactamase (ampC, Pseudomonas aeruginosa, UniProt P24735); test = enzyme activity, inhibitor, absorbance; measurement = kinact; result = 0.046 s⁻¹

Excerpt of the above:
Compound = O=[N+]([O-])c1ccc(OP(=O)(O)O)cc1; target = Alkaline phosphatase PafA (pafA, Elizabethkingia meningoseptica, UniProt Q9KJX5, K162A); system = Chryseobacterium meningosepticum; conditions = pH 8.0; scale = relative to: wild type over mutant kcat/KM; measurement = relative catalytic efficiency; result = 12000
